# Published values of several laboratories.
# Every numbered part comes from another study and shows a few of its results, in no order. Substitutions count along the parent as printed.

# Block 1 — technique: protein-binding microarray; molecule type: double-stranded DNA, one strand shown; matrix: in vitro; concentration: 2540 nM top; notes: 60-bp whole probe; with: salmon DNA 0.4 mg/ml; baseline: random background probes; direction: higher = stronger binding; shared flanks, not repeated: GCCTAGCAC … GTCTTGATTCGCTTGACGCTGCTG
# Target: Interferon regulatory factor 3, full length, phosphomimetic (IRF3, Homo sapiens, UniProt Q14653, residues 1-427, S386D/S396D/S398D/S402D/T404D/S405D)
# Chain of UniProt Q14653 (whole entry, unmodified, looked up): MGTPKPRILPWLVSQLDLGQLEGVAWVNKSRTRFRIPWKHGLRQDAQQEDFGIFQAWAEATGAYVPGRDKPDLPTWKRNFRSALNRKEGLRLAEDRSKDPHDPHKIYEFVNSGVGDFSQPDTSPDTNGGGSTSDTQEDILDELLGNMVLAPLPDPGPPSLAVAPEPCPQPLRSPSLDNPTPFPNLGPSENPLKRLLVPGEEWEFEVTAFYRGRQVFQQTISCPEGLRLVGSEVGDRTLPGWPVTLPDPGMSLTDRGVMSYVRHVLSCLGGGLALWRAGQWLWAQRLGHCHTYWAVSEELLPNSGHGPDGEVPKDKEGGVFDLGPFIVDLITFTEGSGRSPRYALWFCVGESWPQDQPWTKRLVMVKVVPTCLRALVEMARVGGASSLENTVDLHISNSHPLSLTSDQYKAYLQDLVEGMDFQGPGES
Oligonucleotide,fitted relative affinity [z-score]
GAGGGTTTCGGGTATCGGGACGTGCTA,2.95
TTAGGTATCGGTTGCGGTTAGTGCTAG,2.97
TTAGGTCTCCTTCTCCGTTAGTGCTAG,3.91
TGCTTTCTCTTTCATTGCTGCGTGCTA,3.72
GACGGCTTCCTTTCCCTGACGTGCTAG,1.71
TTAGGTTTCCTTCTCATTTAGTGCTAG,10.1
CTAATATTCATTTTATTCAAGTGCTAG,2.03
TTAGGACTGGACACTTGGTTAGTGCTA,-0.711
GACGGTTTCCGTTCCCTGACGTGCTAG,7.74
TTAGGTTTCGGTATAGGTTAGTGCTAG,7.46
GACAGACTGGGTATCGGGACGTGCTAG,-0.04
GACGGTCTCGGTTTCGTGACGTGCTAG,2.69
TCATGATTGGTTGAACAACTGTGCTAG,-0.0734
CACGATTTCGGGTTTCGAGACGTGCTA,2.17
TCACATCTCAAGTAGCCTACTGTGCTA,1.01
GACGGACTGCTTCTGCTGACGTGCTAG,-0.544
TTAAGTCTCCTTTTCCTTTAGTGCTAG,6.02
GACGGACTGGACACTGGGGACGTGCTA,-0.682
GACGGTCTCGGTATCCGGACGTGCTAG,2.19
GACCCTGGACACTTCACGTAGTGCTAG,-0.513
TTAGGTTTCCTTAACCTTTAGTGCTAG,4.59
TGAGATTTCAGTATCGATTAGTGCTAG,2.44
GACGGTATCCTTAACCTGACGTGCTAG,2.33

# Block 2 — technique: universal PBM; molecule type: double-stranded DNA, one strand shown; matrix: in vitro; concentration: 600 nM; direction: higher = stronger binding
# Target: Sal-like protein 4, full length isoform A (SALL4, Homo sapiens, UniProt Q9UJQ4, residues 1-1053)
# Chain of UniProt Q9UJQ4 (whole entry, looked up): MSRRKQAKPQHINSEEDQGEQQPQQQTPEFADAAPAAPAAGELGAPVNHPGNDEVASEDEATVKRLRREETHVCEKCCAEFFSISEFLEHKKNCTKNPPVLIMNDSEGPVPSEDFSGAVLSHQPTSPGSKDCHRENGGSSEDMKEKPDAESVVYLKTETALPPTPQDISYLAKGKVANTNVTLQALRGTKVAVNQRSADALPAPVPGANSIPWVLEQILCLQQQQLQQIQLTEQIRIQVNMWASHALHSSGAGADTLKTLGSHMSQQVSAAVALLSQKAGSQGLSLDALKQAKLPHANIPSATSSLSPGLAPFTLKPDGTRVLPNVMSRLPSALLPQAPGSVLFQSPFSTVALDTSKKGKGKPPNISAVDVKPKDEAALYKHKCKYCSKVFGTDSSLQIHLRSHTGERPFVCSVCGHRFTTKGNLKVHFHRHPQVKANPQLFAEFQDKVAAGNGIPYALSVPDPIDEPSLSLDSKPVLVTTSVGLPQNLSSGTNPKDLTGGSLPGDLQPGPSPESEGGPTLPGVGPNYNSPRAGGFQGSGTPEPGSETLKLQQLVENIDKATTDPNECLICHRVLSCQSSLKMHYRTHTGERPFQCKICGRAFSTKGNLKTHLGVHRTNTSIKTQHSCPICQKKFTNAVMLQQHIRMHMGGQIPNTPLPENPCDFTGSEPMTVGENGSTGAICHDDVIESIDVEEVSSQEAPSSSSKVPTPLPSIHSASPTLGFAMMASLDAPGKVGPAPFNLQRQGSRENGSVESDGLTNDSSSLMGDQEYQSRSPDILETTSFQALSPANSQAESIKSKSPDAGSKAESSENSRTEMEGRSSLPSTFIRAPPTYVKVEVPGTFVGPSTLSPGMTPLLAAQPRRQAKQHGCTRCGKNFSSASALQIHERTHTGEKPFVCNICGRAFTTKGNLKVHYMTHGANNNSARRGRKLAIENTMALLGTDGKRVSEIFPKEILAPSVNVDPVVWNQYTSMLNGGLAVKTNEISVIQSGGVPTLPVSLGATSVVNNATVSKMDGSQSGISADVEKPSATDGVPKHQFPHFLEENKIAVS
# Notes: 8-mer, flanks averaged, mean of replicates
Oligonucleotide,E-score
CGCGGGAG,-0.304
GAGGAAAA,0.165
GTCGGAAC,-0.217
GCACCAGA,-0.154
ATTAATTC,0.338
CTGCCTAA,-0.125
CGCCATAC,-0.0466
AGTTTTAA,0.282
CAGAGCAC,-0.163
ACTATTCC,0.11
ATCAAATA,0.319
GTATGCGA,0.0665
ACTTCATG,-0.0494
GGAGCTTA,-0.0334
GAACGAAC,0.0384
ATGGCTTA,0.118
AAACGATC,0.122
CCGCCAAA,-0.0967
AGAGATTA,0.0982
CAAAAAGA,0.212
GGAGATCA,-0.0685
CCATTTTA,0.237
GACAAGAC,-0.0998
AGGTTACG,0.0207
CATTTAGG,-0.0361

# Block 3 — technique: DHFR PCA, deep sequencing; matrix: yeast; with: (+)-ABA 0.032 µM; baseline: wild-type fitted maximum; direction: higher = stronger binding
# Target: ABI1, truncated, D143A, DHFR fusion (Arabidopsis thaliana)
# Notes: methotrexate growth selection, single substitutions
# Starting sequence: PYL1, truncated, DHFR fusion (Arabidopsis thaliana); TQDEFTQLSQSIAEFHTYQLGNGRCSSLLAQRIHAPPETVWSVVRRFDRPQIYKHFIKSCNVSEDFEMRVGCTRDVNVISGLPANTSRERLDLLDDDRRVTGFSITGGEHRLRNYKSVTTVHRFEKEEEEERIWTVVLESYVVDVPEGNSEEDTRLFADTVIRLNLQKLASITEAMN; partner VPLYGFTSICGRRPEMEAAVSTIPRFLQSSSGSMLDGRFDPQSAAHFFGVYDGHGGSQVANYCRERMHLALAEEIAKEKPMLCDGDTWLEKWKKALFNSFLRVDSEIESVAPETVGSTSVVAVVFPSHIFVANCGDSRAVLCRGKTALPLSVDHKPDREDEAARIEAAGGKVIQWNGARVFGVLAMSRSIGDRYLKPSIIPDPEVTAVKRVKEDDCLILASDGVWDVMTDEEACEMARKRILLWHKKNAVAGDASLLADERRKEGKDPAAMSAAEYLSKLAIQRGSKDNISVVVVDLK
Substitution,relative binding score
L94Q,-1.71%
R98Q,11%
E174V,-1.51%
V43T,3.74%
F66V,3.97%
S104K,-3.43%
T135W,-5.97%
D92F,-0.668%
R123F,-1.01%
R32H,8.76%
V161P,4.14%
L169P,4.49%
V76L,4.24%
V145Y,-12.3%
R45A,-7.24%
L164I,2.67%
A84Q,14.6%
L29P,7.62%
L164W,7.45%
E174P,2.21%
S140H,4.89%
D96T,0.902%

# Block 4 — target: CCNB1, cyclin fold, Cln2 fusion (human); technique: yeast growth competition, sequencing; matrix: yeast; notes: weak parent motif; baseline: not given; direction: higher = stronger binding
# Starting sequence: CDKN1C docking peptide (human); TSACRSLFGPVDH
Substitution,normalised enrichment score
TSACASAFGPVDH [R5A L7A],-0.274
TSACASLFGPVDH [R5A],0.0276
TAACRSLFGPVDH [S2A],0.743
TSACKSLLGPVDH [R5K F8L],0.101
TSAARSLFGPVDH [C4A],0.199
TSACRSAFGPVDH [L7A],0.0239
TSACKSLFGPVDH [R5K],0.36
TSACRSLAGPVDH [F8A],0.352
TSACRSLFAPVDH [G9A],0.534

# Block 5 — technique: RNA Bind-n-Seq; molecule type: RNA; matrix: in vitro; concentration: not given; notes: RNA with constant flanks, ends assumed; baseline: input RNA pool; direction: higher = stronger binding
# Target: RING finger protein unkempt homolog, zinc fingers 1-6, GST-SBP tag (UNK, Homo sapiens, UniProt Q9C0B0, residues 30-357)
# Shared flanks, not repeated: GGGAGUUCUACAGUCCGACGAUC … CAACAGAGGAUUGAGCAUCA
# Residues (chain): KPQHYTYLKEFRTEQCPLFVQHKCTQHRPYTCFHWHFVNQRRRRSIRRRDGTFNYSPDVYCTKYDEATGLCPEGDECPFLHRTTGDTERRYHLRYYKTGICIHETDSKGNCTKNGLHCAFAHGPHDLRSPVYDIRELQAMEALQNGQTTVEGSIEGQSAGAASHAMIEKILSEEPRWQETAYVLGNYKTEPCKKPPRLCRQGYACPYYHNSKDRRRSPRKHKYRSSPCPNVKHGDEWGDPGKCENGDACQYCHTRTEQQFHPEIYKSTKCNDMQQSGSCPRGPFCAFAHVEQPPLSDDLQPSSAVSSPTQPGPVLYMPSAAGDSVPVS
Oligonucleotide,bound/input enrichment [ratio]
CCAAAAGCAGUAGUUUCUCCUCCUAAGUUUGUAUUUGGCUCAGAAUCUGUUAAAAGCAUUUUCCGCCGUGAAAAAUCCAAGCCAUUUGCAUUUGGCAACAGUUCAGCCACUGGUUCUUUG,0.168
AUGGUUGAACUCAACGGAAAUCAGCCCAUGGAGAUCAAAGUCCUGGGUCCUUAUACCUUCCGCAUCUGUGACACCUCCAACUUCUCCGACUACAUCCGUGGAGGCAUCGUCAGUCAGGUC,0.124
GGGGGUGAUGGUCCUAUGUGUCGCCCAGUAAUUCUGUUGCCGGAAGAUACCCCCCCCUUCUCCGAGCUUAAAGGAUCACGCCAUCCUUGCAUUACGAAGACUUUUUUUGGAGAUGAUUUU,0.44
UCACACUCACAUUGUGGCAAACAGUCAACAUGGAAGUAGACCGGCUCUGCUGAUUUGAAAUUCCGAUUUUUUUUUAAUUAUGUACUGGGGACAGGUUUUUGUCGCUUUACAUUGCUUCCU,0.237
UGUAGAGCUAAUGUUUACCUUCUUCCGACCGGGAAAAUAGUUUAUUUCAUUGCAUCAGCCGCCGUACUAUUUAAUUAUGAGGAGAGAACUCAGCGACACUACCUGGGCCAUACAGACUGU,3.46
AGCAAUCCAGAUCUCUAUGGCCCCUUUUGGAUAUGUGCCACGUUGGUCUUUGCCACCGCAAUCCGUGGGAAUCUUUCCAACUUCUUGAUCCAUCUGGGAGAGAAGACGUACCAUUAUGUG,0.0943
UCCACCUCAAGGUCUUUGCAAAGCCCAAAAUCACCUAUGUAGAGAAUCAGACGGCCAUGGAACCCGAGGAGCAAGUCACUCUGACCUGUGAAGCCUCCGGAGACCCCAUCCCCUCCAUCA,0.0778
UAAAUAUUAUAUAUAUCAAAAGCCAAAAUCUUUAUUUUUAUGCAUUUAGAAUAUUUUAAACCGUUCUCAGAUAUUAAGAAGUUGUAUGAGUUGUAAGUAAUCUUGCCAAAGGUAAAGGGG,1.7
AAGCUUGGUGGGACAAUAGAUGACUGUGAGCUGGUGGAAGGCCUCGUUCUCACACAGAAAGCCGCAAAUUCUGGCAUAACAAGAGUUGAAAAGGCUAAGAUUGGGCUUAUUCAGUUUUGC,0.204
CCGUAGGGGCACAGAGAGCUUAGAUCACCUUGCUGGUCUCUCACAUUAUUACCAUGCUGAUACCCGCUAUAGACACUUCCCCAAGUCUGAAAAGUAUAGCAUCAGUAGACUCACCCUGGA,0.551
ACUUCAGUGGCUGGAACAGUGAGAAAAUGCUGGCCUAAUAGAGUGGCAAAGGAGCAGAUCCGCCGGCGGCUUGAUGGUAAUCAGUAUCUGUUUUUGCCACCAAAUCGUUACAUUUUCCAU,0.126

# Block 6 — technique: protein binding microarray; molecule type: double-stranded DNA, one strand shown; matrix: in vitro; concentration: not given; baseline: not given; direction: higher = stronger binding
# Target: Histone acetyltransferase KAT6A, both winged helices, GST fusion (KAT6A, Homo sapiens, UniProt Q92794, residues 1-181)
# Notes: 8-mer, flanks averaged, mean of 2 arrays, mostly near background
# Residues (chain): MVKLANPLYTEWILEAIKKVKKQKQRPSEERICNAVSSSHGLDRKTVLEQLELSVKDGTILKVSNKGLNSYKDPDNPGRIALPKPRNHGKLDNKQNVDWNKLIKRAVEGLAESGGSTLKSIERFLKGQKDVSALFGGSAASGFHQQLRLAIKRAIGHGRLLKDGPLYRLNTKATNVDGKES
Oligonucleotide,E-score
CGGAGCTC,0.078
CTACCGAC,0.0923
AATGAGGC,0.00101
GGCTACAC,-0.00321
AAAGATGG,-0.0154
AAGGGATA,-0.167
ATTCTGTA,-0.169
AGGCCGAC,0.0433
GTTAATCA,-0.0319
CATCATCC,-0.0266
AAAATAAT,-0.0755
CAGAGGTA,-0.194
AATTTGGG,-0.239
GTAGCGGA,0.132
CCCACGCC,-0.0633
CGCTGAAC,0.166
TATCGAGA,-0.137
CTCTGCGC,0.256
GCTGGTGA,-0.0317
AATCGCCT,-0.196
GGGGCACC,0.0332
CGCAAGTC,0.0448
ACTACCGC,0.227
AAGATTGG,-0.0696
CACTAACG,0.117

# Excerpt of the above (block 3):
Substitution,relative binding score
D92F,-0.668%
T135W,-5.97%
R98Q,11%
L169P,4.49%
R123F,-1.01%
V76L,4.24%
D96T,0.902%
L164I,2.67%
V43T,3.74%
F66V,3.97%
V145Y,-12.3%
R32H,8.76%
